Measurements of several laboratories.
Numbered parts are unrelated; each lists some results of a single study.
Sequence of UniProt Q13283 (whole entry, looked up): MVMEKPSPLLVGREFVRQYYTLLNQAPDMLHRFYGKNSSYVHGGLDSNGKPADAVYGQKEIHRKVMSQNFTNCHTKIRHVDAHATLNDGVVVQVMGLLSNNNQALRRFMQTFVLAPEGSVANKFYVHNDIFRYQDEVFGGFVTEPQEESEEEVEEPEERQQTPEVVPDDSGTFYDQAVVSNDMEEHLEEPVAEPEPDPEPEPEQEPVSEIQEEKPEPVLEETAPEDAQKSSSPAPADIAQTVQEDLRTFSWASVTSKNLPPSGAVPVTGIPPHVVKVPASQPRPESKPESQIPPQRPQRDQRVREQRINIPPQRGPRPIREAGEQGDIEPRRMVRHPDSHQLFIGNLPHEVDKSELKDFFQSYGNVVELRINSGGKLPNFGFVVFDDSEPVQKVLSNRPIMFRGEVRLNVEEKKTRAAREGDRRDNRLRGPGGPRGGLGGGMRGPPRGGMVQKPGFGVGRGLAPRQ

Series 1 — technique: protein-binding microarray; form: double-stranded DNA, one strand shown; sample: in vitro; concentration: 0.8 µM; setting: whole 60-bp probe, no competitor; reading: higher = stronger binding; measurement: fluorescence intensity
Target: Centromere-binding protein 1, full length, N-terminal tag (CBF1, Saccharomyces cerevisiae, UniProt P17106, residues 1-351)
Sequence of UniProt P17106 (whole entry, looked up): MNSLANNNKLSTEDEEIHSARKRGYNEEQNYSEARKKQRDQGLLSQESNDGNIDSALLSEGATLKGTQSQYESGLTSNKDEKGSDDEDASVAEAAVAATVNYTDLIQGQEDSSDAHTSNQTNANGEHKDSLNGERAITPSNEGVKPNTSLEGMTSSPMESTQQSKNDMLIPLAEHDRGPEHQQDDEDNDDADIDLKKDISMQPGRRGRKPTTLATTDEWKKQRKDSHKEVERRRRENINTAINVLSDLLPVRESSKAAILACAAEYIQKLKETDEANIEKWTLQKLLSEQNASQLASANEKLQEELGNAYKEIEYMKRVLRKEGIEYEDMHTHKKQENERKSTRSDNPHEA
GAAGCGTAAAGTAGTCTCATGAAGTAGATGAGTTAGGTCTTGATTCGCTTGACGCTGCTG: 541 a.u.
CCTAACTACTATAATCACGTGCAATAGCTTCGTACAGTCTTGATTCGCTTGACGCTGCTG: 10200 a.u.
CTACAACAAGGTTGTCATGAGGAGTTACAGATATTCGTCTTGATTCGCTTGACGCTGCTG: 530 a.u.
CTATTCTTTCTTCTTCATGTGCATGCACTCTTTTTCGTCTTGATTCGCTTGACGCTGCTG: 705 a.u.

Series 2 — technique: protein binding microarray; form: double-stranded DNA, one strand shown; sample: in vitro; concentration: not given; reference: not given; reading: higher = stronger binding; measurement: E-score
Target: Histone acetyltransferase KAT6A, both winged helices, GST fusion (KAT6A, Homo sapiens, UniProt Q92794, residues 1-181)
Setting: 8-mer, flanks averaged, mean of 2 arrays, mostly near background
Target sequence (chain): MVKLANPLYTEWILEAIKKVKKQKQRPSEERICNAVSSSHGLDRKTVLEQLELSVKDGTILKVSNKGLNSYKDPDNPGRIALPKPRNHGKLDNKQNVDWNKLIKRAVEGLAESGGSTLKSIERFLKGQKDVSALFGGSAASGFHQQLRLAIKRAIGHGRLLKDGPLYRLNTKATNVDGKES
AACGTTTG: 0.0508
ATAGTACA: -0.0907
AGCGCCAC: 0.197
AAGATAAG: -0.146

Other studies, line by line
GGGAGUUCUACAGUCCGACGAUCGCAGGAAGUAAAAACAAAUGGAAAUGCUUCGGAUAGUGGCAGGGGUGGGGGUUGCUAAGGAAAGGGUGGGAUGGGAGUGGGUAAAGAAAUUGGAAUUCUCGGGUGUCAAGG (7-deaza-guanosine replaces G)  log2 enrichment (Ras GTPase-activating protein-binding protein 1, full length (G3BP1, Homo sapiens, UniProt Q13283); RNA Bind-n-Seq; RNA, in vitro; 200 nM, whole 134-nt RNA, ends assumed, with: 150 mM LiCl; reference: input library, higher = stronger binding): 0.0523
PhoQ, residues 284 288 289 292 302 303 AGCYAI  fold induction (PhoP, residues 12 14 15 18 19 FWNTL (Escherichia coli, UniProt P23836); Sort-seq, item: YFP reporter; E. coli; PhoQ-PhoP variant library, with: 10 µM Mg2+; reference: high Mg2+ state, higher = stronger signaling): 2.82

A few entries again (series 1):
CTACAACAAGGTTGTCATGAGGAGTTACAGATATTCGTCTTGATTCGCTTGACGCTGCTG: 530 a.u.
